Results collected from several papers.
± gives the spread as reported.
Organism: Escherichia coli

Molecule	assay	system	setting	MIC
CC[C@H](C)[C@H](NC(=O)[C@H](CC(C)C)NC(=O)[C@@H]1CCCN1C(=O)[C@H](Cc1ccccc1)NC(=O)[C@H](CC(C)C)NC(=O)[C@@H](N)Cc1ccccc1)C(=O)N[C@H](C(=O)N[C@@H](CO)C(=O)N[C@@H](Cc1ccccc1)C(=O)N[C@@H](CC(C)C)C(=O)N[C@@H](CO)C(=O)N[C@@H](CCCCN)C(=O)N[C@H](C(=O)N[C@@H](CC(C)C)C(=O)O)C(C)C)[C@@H](C)O	broth microdilution	K12	37 °C	> 100 µM
CC[C@H](C)[C@H](NC(=O)CN)C(=O)NCC(=O)N[C@@H](CCCCN)C(=O)N[C@@H](Cc1ccccc1)C(=O)N[C@@H](CC(C)C)C(=O)N[C@@H](CCCCN)C(=O)N[C@@H](CCCCN)C(=O)N[C@@H](C)C(=O)N[C@@H](CCCCN)C(=O)N[C@@H](CCCCN)C(=O)N[C@@H](Cc1ccccc1)C(=O)NCC(=O)N[C@@H](CCCCN)C(=O)N[C@@H](C)C(=O)N[C@@H](Cc1ccccc1)C(=O)N[C@H](C(=O)N[C@@H](CCCCN)C(=O)N[C@H](C(=O)N[C@@H](CC(C)C)C(=O)N[C@@H](CCCCN)C(=O)N[C@@H](CCCCN)C(N)=O)[C@@H](C)CC)C(C)C	–	K12	–	6.3 µg/mL
CC1(C)S[C@@H]2[C@H](NC(=O)[C@H](N)c3ccccc3)C(=O)N2[C@H]1C(=O)O	–	OXA-48 expressing	–	512 µg/mL
CC[C@H](C)[C@H](NC(=O)CNC(=O)[C@H](CCCNC(=N)N)NC(=O)[C@H](Cc1ccccc1)NC(=O)[C@@H](NC(=O)[C@H](Cc1c[nH]cn1)NC(=O)[C@H](Cc1c[nH]cn1)NC(=O)[C@H](Cc1ccccc1)NC(=O)[C@@H](N)Cc1ccccc1)[C@@H](C)CC)C(=O)N[C@H](C(=O)N[C@@H](Cc1c[nH]cn1)C(=O)N[C@H](C(=O)NCC(=O)N[C@@H](CCCCN)C(=O)N[C@H](C(=O)N[C@H](C(=O)N[C@@H](Cc1c[nH]cn1)C(=O)N[C@@H](CCCNC(=N)N)C(=O)N[C@@H](CC(C)C)C(=O)N[C@H](C(=O)N[C@H](C(=O)NCC(N)=O)[C@@H](C)O)C(C)C)[C@@H](C)CC)[C@@H](C)O)C(C)C)C(C)C	broth microdilution	ATCC 25922	18 h, 37 °C	3.1 µg/mL
CC(C)C[C@H](NC(=O)[C@H](CCCNC(=N)N)NC(=O)[C@@H]1CCCN1C(=O)[C@H](Cc1c[nH]cn1)NC(=O)[C@@H]1CCCN1C(=O)[C@@H]1CCCN1C(=O)[C@H](CCCNC(=N)N)NC(=O)[C@@H]1CCCN1C(=O)[C@H](CCC(N)=O)NC(=O)[C@@H]1CCCN1C(=O)[C@H](CCCNC(=N)N)NC(=O)[C@H](Cc1ccc(O)cc1)NC(=O)[C@@H](NC(=O)[C@@H]1CCCN1C(=O)[C@H](CCCCN)NC(=O)[C@H](CC(N)=O)NC(=O)[C@H](CC(N)=O)NC(=O)CN)C(C)C)C(=O)O	broth microdilution	BW25113 parental, Mueller-Hinton broth	18 h, 37 °C	0.012 ± 0.003 µM
CC(C)C[C@H](NC(=O)[C@H](C)NC(=O)[C@H](CCCCN)NC(=O)[C@H](C)NC(=O)[C@H](C)NC(=O)CNC(=O)[C@H](CCCCN)NC(=O)[C@H](CC(C)C)NC(=O)[C@H](CC(C)C)NC(=O)[C@H](CC(=O)O)NC(=O)[C@H](CCCCN)NC(=O)[C@H](Cc1ccccc1)NC(=O)CN)C(=O)N[C@H](C(=O)N[C@@H](CCCCN)C(=O)N[C@H](C(=O)N[C@H](C(=O)N[C@@H](CC(C)C)C(=O)N[C@@H](Cc1ccccc1)C(N)=O)C(C)C)[C@@H](C)O)C(C)C	broth microdilution	K12	37 °C	12.5 µM
CC[C@H](C)[C@H](NC(=O)[C@H](CO)NC(=O)[C@H](CO)NC(=O)[C@H](Cc1ccccc1)NC(=O)CN)C(=O)N[C@@H](Cc1ccccc1)C(=O)N[C@@H](CCCCNC(=N)N)C(=O)NCC(=O)N[C@H](C(=O)N[C@@H](C)C(=O)N[C@@H](CCCCNC(=N)N)C(=O)N[C@@H](Cc1ccccc1)C(=O)N[C@@H](C)C(=O)N[C@@H](CO)C(=O)N[C@@H](CCCCNC(=N)N)C(=O)NCC(=O)N[C@@H](CC(C)C)C(=O)NCC(=O)N[C@@H](CCCCNC(=N)N)C(N)=O)C(C)C	–	ATCC 8739	pretreated trypsin 1 mg/mL	16 µM
CC(C)C[C@H](NC(=O)[C@H](C)NC(=O)CNC(=O)[C@H](CC(C)C)NC(=O)[C@H](CC(C)C)NC(=O)[C@H](CCCCN)NC(=O)[C@H](CCCCN)NC(=O)[C@H](CC(C)C)NC(=O)[C@H](CC(C)C)NC(=O)[C@H](CCCCN)NC(=O)[C@H](CC(C)C)NC(=O)[C@H](CC(C)C)NC(=O)[C@@H](N)CCCCN)C(=O)NCC(N)=O	–	ATCC 25922, CAMHB	18 h, 37 °C	1 µM
CSCC[C@H](NC(=O)[C@H](CO)NC(=O)[C@H](CCCCN)NC(=O)[C@H](Cc1c[nH]c2ccccc12)NC(=O)[C@@H](N)CO)C(=O)N[C@@H](C)C(=O)N[C@@H](CCCCN)C(=O)N[C@@H](CCCCN)C(=O)N[C@@H](CC(C)C)C(=O)N[C@@H](CCCCN)C(=O)N[C@@H](CCC(=O)O)C(=O)N[C@@H](Cc1ccc(O)cc1)C(=O)N[C@@H](CCSC)C(=O)N[C@@H](CCC(=O)O)C(=O)N[C@@H](CCCCN)C(=O)N[C@@H](CC(C)C)C(=O)N[C@@H](CCCCN)C(=O)N[C@@H](CCC(N)=O)C(=O)N[C@@H](CCCNC(=N)N)C(=O)N[C@@H](C)C(=O)O	broth microdilution	K12	37 °C	> 100 µM
CC(C)C[C@H](NC(=O)[C@H](CCCNC(=N)N)NC(=O)[C@@H]1CCCN1C(=O)[C@H](CCCNC(=N)N)NC(=O)[C@@H]1CCCN1C(=O)[C@@H]1CCCN1C(=O)[C@H](CCCNC(=N)N)NC(=O)[C@@H]1CCCN1C(=O)[C@H](CCC(N)=O)NC(=O)[C@@H]1CCCN1C(=O)[C@H](CCCNC(=N)N)NC(=O)[C@H](Cc1ccc(O)cc1)NC(=O)[C@@H](NC(=O)[C@@H]1CCCN1C(=O)[C@H](CCCNC(=N)N)NC(=O)[C@H](CC(N)=O)NC(=O)[C@H](CC(N)=O)NC(=O)CN)C(C)C)C(=O)O	–	JW0368 ΔsbmA	18 h, 37 °C, 12.5% Mueller-Hinton broth	0.096 ± 0.023 µM
CC(C)C[C@@H](N)C(=O)N[C@@H](C(=O)N[C@H](Cc1c[nH]c2ccccc12)C(=O)N[C@H](CCCCN)C(=O)N[C@H](CC(C)C)C(=O)N[C@H](Cc1c[nH]c2ccccc12)C(=O)N[C@H](Cc1c[nH]c2ccccc12)C(=O)N[C@H](CCCNC(=N)N)C(=O)N[C@H](CC(C)C)C(=O)N[C@H](CCCNC(=N)N)C(=O)N[C@H](Cc1c[nH]c2ccccc12)C(=O)N[C@H](CC(C)C)C(=O)N[C@H](CCCCN)C(N)=O)C(C)C	–	ATCC 25922	1 h, 37 °C, dividing cells in LB	50 µg/mL
CC(C)C[C@H](NC(=O)[C@H](CCCNC(=N)N)NC(=O)[C@H](CC(C)C)NC(=O)[C@@H](NC(=O)[C@H](CC(C)C)NC(=O)[C@H](Cc1c[nH]cn1)NC(=O)[C@H](C)NC(=O)[C@@H](NC(=O)[C@@H](N)CO)[C@@H](C)O)C(C)C)C(=O)N[C@@H](CCCNC(=N)N)C(=O)NCC(=O)NCC(=O)O	–	DH5α	37 °C, ≥90% viability decrease	> 100 µM
CC[C@H](C)[C@H](NC(=O)[C@H](CCCNC(=N)N)NC(=O)[C@H](CCCCN)NC(=O)[C@H](CC(C)C)NC(=O)[C@H](Cc1ccccc1)NC(=O)[C@H](CCCNC(=N)N)NC(=O)[C@H](C)NC(=O)[C@@H](N)C(C)C)C(=O)N[C@H](C(=O)N[C@@H](CCCCN)C(=O)N[C@@H](C)C(=O)N[C@@H](CC(C)C)C(=O)N[C@@H](Cc1ccccc1)C(N)=O)[C@@H](C)CC	–	ATCC 25922	1 h, 37 °C, non-dividing cells in PBS	6.25 µg/mL
CC(C)C[C@H](NC(=O)[C@H](CCCNC(=N)N)NC(=O)[C@@H]1CCCN1C(=O)[C@H](CCCNC(=N)N)NC(=O)[C@@H]1CCCN1C(=O)[C@@H]1CCCN1C(=O)[C@H](CCCNC(=N)N)NC(=O)[C@@H]1CCCN1C(=O)[C@H](CCC(N)=O)NC(=O)[C@@H]1CCCN1C(=O)[C@H](CCCCN)NC(=O)[C@H](Cc1ccc(O)cc1)NC(=O)[C@@H](NC(=O)[C@@H]1CCCN1C(=O)[C@H](CCCNC(=N)N)NC(=O)[C@H](CC(N)=O)NC(=O)[C@H](CC(N)=O)NC(=O)CN)C(C)C)C(=O)O	–	JW0368 ΔsbmA	18 h, 37 °C, 12.5% Mueller-Hinton broth	0.096 ± 0.023 µM
CC(C)C[C@H](NC(=O)[C@H](Cc1ccccc1)NC(=O)[C@H](CCCCN)NC(=O)[C@@H](N)CCCCN)C(=O)NCC(=O)N[C@@H](CCCCN)C(=O)N[C@@H](Cc1c[nH]c2ccccc12)C(=O)N[C@@H](CCCCN)C(=O)N[C@@H](CC(C)C)C(=O)N[C@@H](CCCNC(=N)N)C(=O)N[C@@H](Cc1ccccc1)C(=O)NCC(=O)N[C@@H](Cc1c[nH]c2ccccc12)C(N)=O	–	ATCC 25922	1 h, 37 °C, dividing cells in LB	12.5 to 25 µg/mL
CC[C@H](C)[C@H](NC(=O)[C@H](Cc1ccc(O)cc1)NC(=O)[C@@H](NC(=O)[C@@H]1CCCN1C(=O)[C@H](CCCNC(=N)N)NC(=O)[C@H](CC(N)=O)NC(=O)[C@H](CC(N)=O)NC(=O)CN)C(C)C)C(=O)N1CCC[C@H]1C(=O)N[C@@H](CCC(N)=O)C(=O)N1CCC[C@H]1C(=O)N[C@@H](CCCNC(=N)N)C(=O)N1CCC[C@H]1C(=O)N1CCC[C@H]1C(=O)N[C@@H](Cc1c[nH]cn1)C(=O)N1CCC[C@H]1C(=O)N[C@@H](CCCNC(=N)N)C(=O)N[C@@H](CC(C)C)C(=O)O	broth microdilution	BW25113, 5% M9 medium	–	0.384 ± 0.08 µM
magainin 2	serial dilution	ATCC 12014	24 h, 37 °C	> 100 µg/mL
CC[C@H](C)[C@H](NC(=O)[C@H](CCCNC(=N)N)NC(=O)[C@H](Cc1c[nH]c2ccccc12)NC(=O)[C@H](CCCNC(=N)N)NC(=O)[C@@H](N)CCCCN)C(=O)N[C@@H](CCCNC(=N)N)C(=O)N[C@H](C(=O)N[C@@H](CCCNC(=N)N)C(=O)N[C@H](C(=O)N[C@H](C(=O)N[C@@H](CCCNC(=N)N)C(=O)N[C@@H](CCCCN)C(=O)N[C@@H](CS)C(=O)O)[C@@H](C)CC)C(C)C)C(C)C	–	ATCC 25922	24 h, 37 °C	15 µM

Excerpt of the above:
Molecule	assay	system	setting	MIC
CC[C@H](C)[C@H](NC(=O)[C@H](CCCNC(=N)N)NC(=O)[C@H](CCCCN)NC(=O)[C@H](CC(C)C)NC(=O)[C@H](Cc1ccccc1)NC(=O)[C@H](CCCNC(=N)N)NC(=O)[C@H](C)NC(=O)[C@@H](N)C(C)C)C(=O)N[C@H](C(=O)N[C@@H](CCCCN)C(=O)N[C@@H](C)C(=O)N[C@@H](CC(C)C)C(=O)N[C@@H](Cc1ccccc1)C(N)=O)[C@@H](C)CC	–	ATCC 25922	1 h, 37 °C, non-dividing cells in PBS	6.25 µg/mL
CC1(C)S[C@@H]2[C@H](NC(=O)[C@H](N)c3ccccc3)C(=O)N2[C@H]1C(=O)O	–	OXA-48 expressing	–	512 µg/mL
CC(C)C[C@H](NC(=O)[C@H](Cc1ccccc1)NC(=O)[C@H](CCCCN)NC(=O)[C@@H](N)CCCCN)C(=O)NCC(=O)N[C@@H](CCCCN)C(=O)N[C@@H](Cc1c[nH]c2ccccc12)C(=O)N[C@@H](CCCCN)C(=O)N[C@@H](CC(C)C)C(=O)N[C@@H](CCCNC(=N)N)C(=O)N[C@@H](Cc1ccccc1)C(=O)NCC(=O)N[C@@H](Cc1c[nH]c2ccccc12)C(N)=O	–	ATCC 25922	1 h, 37 °C, dividing cells in LB	12.5 to 25 µg/mL
